Experimental data from different studies.
Each numbered part is a random draw from the data of one study; scales do not carry over between parts. Substitutions count along the parent as printed.

Study 1 — target: BATF3, bZIP domain (human); technique: DHFR protein complementation; medium: yeast; baseline: wild-type JUN-FOS pair; reading: higher = stronger binding; endpoint: binding fitness
Notes: single substitutions, most at no-binding floor
Parent: JUN, bZIP domain (human); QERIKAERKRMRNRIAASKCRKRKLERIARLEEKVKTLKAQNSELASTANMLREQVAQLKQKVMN; partner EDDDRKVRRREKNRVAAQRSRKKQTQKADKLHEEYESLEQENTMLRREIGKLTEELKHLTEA
T48R: 0.226 natural log
N42Y: -0.0709 natural log
K36G: 0.226 natural log
V56F: -0.0413 natural log
E44S: 0.129 natural log
A49G: -0.0343 natural log
K34E: 0.203 natural log
A49M: 0.147 natural log
N42L: -0.454 natural log
A40I: 0.219 natural log
A29M: -0.0551 natural log
L31F: 0.188 natural log
A49E: 0.108 natural log
A40N: 0.194 natural log
Q55N: 0.137 natural log
A40E: 0.219 natural log
K36S: 0.238 natural log

Study 2 — technique: protein binding microarray; molecule type: double-stranded DNA, one strand shown; medium: in vitro; concentration: not given; baseline: not given; reading: higher = stronger binding; endpoint: E-score
Target: Histone acetyltransferase KAT6A, winged helix 1, GST fusion (KAT6A, Homo sapiens, UniProt Q92794, residues 1-85)
Notes: 8-mer, flanks averaged, mean of 2 arrays, mostly near background
Residues (chain): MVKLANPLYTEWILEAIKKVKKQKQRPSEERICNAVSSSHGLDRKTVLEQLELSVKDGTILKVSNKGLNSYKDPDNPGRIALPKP
AGTCTAGC: -0.0667
GACGCTGC: 0.165
ACTCAGGC: -0.13
ACCGACGG: 0.455
CGACTGTC: 0.0305
ATGGTGAG: -0.218
CAAGGGGG: -0.021
ACGTTGTC: -0.06
CCGTGGAC: 0.313
GCTCAACA: -0.0247
CAGGACAG: -0.218
ACTGAGCC: -0.0487
GACGGGGC: 0.282
CCTGGCTC: 0.00899
GAGTATCA: -0.0117
CTCCGCAG: 0.0535
CAGAGAAC: -0.109
CGCCTATC: 0.145
GTGACAAC: -0.0758
GGCTGATA: 0.0888
ATATAATC: -0.00513
CCAAAAAA: -0.203
ATATATAG: -0.0999
ATCTGCAG: -0.167
AAACGGCT: 0.173

Study 3 — technique: protein-binding microarray; molecule type: double-stranded DNA, one strand shown; medium: in vitro; concentration: 940 nM top; notes: 60-bp whole probe; together with: salmon DNA 0.4 mg/ml; baseline: random background probes; reading: higher = stronger binding; endpoint: fitted relative affinity; all sequences stand within: GCCTAGCAC … GTCTTGATTCGCTTGACGCTGCTG
Target: Interferon regulatory factor 5, full length, phosphomimetic (IRF5, Homo sapiens, UniProt Q13568-2, residues 1-514, S451D/S453D/S456D/S462D)
AGCCAGGCAACCTATGGCCTGTGCTAG: -1.04 z-score
GACGGACTGGGTATAGGGACGTGCTAG: -0.359 z-score
TTAGGACTGGGGACTAGGTTAGTGCTA: -0.38 z-score
GACGGTATCGGGACTGGGGTCGTGCTA: 4.08 z-score
TTAGGTTTCGGTTCCGGTTGGTGCTAG: 14.3 z-score
TTAGGTATCCTTTTCCTATAGTGCTAG: 0.871 z-score
TTAGCTTCCGGTTTCGGTTAGTGCTAG: 8.59 z-score
GACGTTATCGACTTTCGGGACGTGCTA: 0.688 z-score
TTAGGTATCGACTATCGTTTAGTGCTA: 5.98 z-score
GACGATTTCAGTTTCGAGTCGTGCTAG: 7.16 z-score
GACGGTCTCGGACTGGCGACGTGCTAG: 0.594 z-score
TTTGCTTTCCTGATGGTCTTGTGCTAG: 0.236 z-score
TTAGATTTCGCGTTTCGATTAGTGCTA: 2.24 z-score
GGCGGTTTCGGTTCCGGGACGTGCTAG: 14.3 z-score
AAACGGGCTTCTTTTTCTCAGGTGCTA: 0.525 z-score
TTAGGTATCGGGATCGGTTAGTGCTAG: 5.01 z-score
TTAGGGTTCCTTTCCCTTTAGTGCTAG: 0.0757 z-score
GACGGTCTCCAACTGCTGACGTGCTAG: -0.387 z-score
CAAATACTCTTCCATGGAGAAGTGCTA: -0.156 z-score
GACGAACTTGGGACTGGAGACGTGCTA: -0.416 z-score
TTAGGACAGCTTATCCTTTAGTGCTAG: -0.229 z-score
TTAGGTTTCGGGAATCGGTTAGTGCTA: 8.18 z-score
TTAGGTTTCGTTATCCTTTAGTGCTAG: 10.1 z-score
TCAGCTCTGTGCATAGTACTGTGCTAG: -0.269 z-score
TAAGGTATCCTTTTCCTTTAGTGCTAG: 0.415 z-score

Study 4 — technique: aptamer microarray, sandwich; molecule type: DNA with 2'F-ANA; medium: in vitro; concentration: 200 nM; together with: Cy3 exosite-II aptamer, 400 nM; reading: higher = stronger binding; endpoint: mean fluorescence intensity; oligonucleotide: GGTTGGTGTGGTTGG
Target: Prothrombin, mature alpha-thrombin (F2, Homo sapiens, UniProt P00734)
Notes: whole 15-mer aptamer, many near background
2'F-ANA at 1 3 6 7 8: 390 a.u.
2'F-ANA at 3 4 6 7 10 12: 375 a.u.
2'F-ANA at 2 7 10 11 13 14 15: 80.9 a.u.
2'F-ANA at 1 4 7 8 9 12 14: 64.8 a.u.
2'F-ANA at 1 4 6 7 8 9 11 13 14 15: 49.1 a.u.
2'F-ANA at 5 7 11 13 14 15: 45.4 a.u.
2'F-ANA at 3 4 5 6 7 8 10 11: 51.6 a.u.
2'F-ANA at 3 4 6 9 12 13 14: 261 a.u.
2'F-ANA at 3 7 8 9 11 13: 1070 a.u.
2'F-ANA at 3 4 9 12 15: 928 a.u.
2'F-ANA at 2 3 4 6 8 9 10 13: 204 a.u.
2'F-ANA at 1 2 4 11 12: 231 a.u.
2'F-ANA at 1 2 3 4 5 8 10 11 13 15: 49.6 a.u.
2'F-ANA at 1 3 9 10 12 14: 61.7 a.u.
2'F-ANA at 3 4 6 10 11 13: 213 a.u.
2'F-ANA at 1 3 4 12 14 15: 93.1 a.u.
2'F-ANA at 5 7 8 11 12 15: 135 a.u.
2'F-ANA at 1 3 4 5 6 7 8 9 11 12 13 14: 44.6 a.u.
2'F-ANA at 5 6 7 8 9 11 12 13: 99 a.u.
2'F-ANA at 2 6 7 9 10 13 14: 112 a.u.
2'F-ANA at 1 4 5 6 8 9 10 12 13 15: 213 a.u.
2'F-ANA at 2 4 5 7 10 11 13: 45.8 a.u.
2'F-ANA at 3 5 7 9 10 12 14 15: 56.5 a.u.

Study 5 — technique: RNA Bind-n-Seq; molecule type: RNA; medium: in vitro; concentration: 365 nM; baseline: no-protein control; reading: higher = stronger binding; endpoint: RBNS enrichment (R)
Target: RNA binding protein fox-1 homolog 2, RRM domain, GST-SBP tag (RBFOX2, Homo sapiens, UniProt O43251-10, residues 100-194)
Notes: natural RNA segment, single round, ends assumed
Target sequence (chain): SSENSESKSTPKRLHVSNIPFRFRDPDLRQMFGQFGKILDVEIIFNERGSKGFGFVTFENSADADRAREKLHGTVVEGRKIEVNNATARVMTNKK
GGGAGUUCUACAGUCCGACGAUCAGCCUUACCAACAUGGAGAAACCCCAUCUCUACUAAAAAUACAAAAUUACCUGGGCGUGGUGGUGCAUGCCUGUAAUCCCAUCAUCUACUCAGGAGGCUGAGGCAGGAGAUGGAAUUCUCGGGUGCCAA: 1.87
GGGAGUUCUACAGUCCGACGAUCCACCUCUCCAGGGACUGAGCAUCAUUGGCUCAUUGUCAUGGGGAGCUCCCUCCUGACCACGGAGGCUCCACUGGUGGUGCCACAUGGGAAACAUCUACUUCUCAGUCUAAUGGAAUUCUCGGGUGCCAA: 0.338
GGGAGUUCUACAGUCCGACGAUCUGCUUGGGCCUCCCUGGCACUGAACCUUAGGCUUUGUAUGACAGUGAAGCAGCACUGUGAGUGGUUCAAGCACACUGGAAUAUAAAACAGUCAUGGCCUGAGAUGCAGGUUGGAAUUCUCGGGUGCCAA: 0.86
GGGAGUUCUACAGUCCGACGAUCUUAAACGUGCAUUUUUACUCAACUACCUCAGGUAUUCAGUAAUACAAUGAAAAGCAAAAUUGUUCCUUUUUUUUGAAAAUUUUAUAUACUUUAUAAUGAUAGAAGUCCAAUGGAAUUCUCGGGUGCCAA: 0.666
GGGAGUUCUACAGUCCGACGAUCCCCACCCCCAAUCCAAAAGGUUCAGAGUCCCCCGAGAUGACACUUCCUCCAGCAUAACCCCAGUUGGCUGACGUGAGCCUAUUCCAUCUGAGGCCAUUCUCUCUUUGGUUUGGAAUUCUCGGGUGCCAA: 0.479
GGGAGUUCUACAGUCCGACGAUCUGGCAGCACAGACCCCUGGAGGCCCCGGAGGACCCGAGGCGGGGUCCAAGGCUGAGUGAGAGCCGGCCAUGCCUCCCCUCCUACUCCUCUGAAUCUCCCGACCUUGGUCCUGGAAUUCUCGGGUGCCAA: 0.748
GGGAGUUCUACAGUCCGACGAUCGCCGUUAUUUACCCCUGAUGUUAUUUAUGACUAUGUGCCGAUUCCUGCUCGGGCUGUUUGCUGUUGGCUGGUAAUAAUAUAUUUGAUUUAAAUGCUGUUGACUGUGCUAUUGGAAUUCUCGGGUGCCAA: 1.14
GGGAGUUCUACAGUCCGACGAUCUUUUAACCUGUUAUUGUCCACUAAAGGUCUUAGAUGUCUGGCCAUGUGAGAAUGCAGUAAGGGGGCUGCCAGCUCUCUUCUCCCUCAGACCAUUGUCUCCCCGCUGAACUUGGAAUUCUCGGGUGCCAA: 0.507
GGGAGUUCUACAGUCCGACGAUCGGGGGAUUCUGAGCAGUGCCUCUUGUCUGAGGGACAUAUCAGUGACCUCGACGUUGCCUUUAGACUACAGUUGUGUUAGCCUCUUGCGUAUUGGCUUUUUCAGAGUCAUUUGGAAUUCUCGGGUGCCAA: 0.358
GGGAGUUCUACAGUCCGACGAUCACCUGCAGCGGCUGCCCUCUGGGGCCACUUGGUAGUGUCCCCAGCCUACCUCUCCACAAGGGGAUUUUGCUGAUGGGUUCUUAGAGCCUUAGCAGCCCUGGAUGGUGGCCUGGAAUUCUCGGGUGCCAA: 0.228
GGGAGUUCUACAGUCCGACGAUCACCACACCUGGCUAAUUUUUUGUAUUUUUAGUAGAGACAGGGGUUUCUUCCAUGUUGCCCAGGCUGGUCUCGAACUCCUGGACUCAAGCAAUCCGCCCACCUUGACUUCCUGGAAUUCUCGGGUGCCAA: 0.376
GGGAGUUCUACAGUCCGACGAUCUAGAACUGAAUUCCUUCCUCCCCUGUCUCAUUUCUACCCAGUGAGUUCAUUUGUCAUAUAGGCACUGGGUUGUUUCUAUAUCAUCAUCGUCUAUAAACUAGCUUUAGGAUUGGAAUUCUCGGGUGCCAA: 0.803
